Published values collected from several papers.
“And” joins repeats or separate records; there may be more than shown. Numbers after ± are the reported error.
ache: Acetylcholinesterase (ache, Electrophorus electricus, UniProt O42275)
UniProt O42275, sequence (whole entry, looked up): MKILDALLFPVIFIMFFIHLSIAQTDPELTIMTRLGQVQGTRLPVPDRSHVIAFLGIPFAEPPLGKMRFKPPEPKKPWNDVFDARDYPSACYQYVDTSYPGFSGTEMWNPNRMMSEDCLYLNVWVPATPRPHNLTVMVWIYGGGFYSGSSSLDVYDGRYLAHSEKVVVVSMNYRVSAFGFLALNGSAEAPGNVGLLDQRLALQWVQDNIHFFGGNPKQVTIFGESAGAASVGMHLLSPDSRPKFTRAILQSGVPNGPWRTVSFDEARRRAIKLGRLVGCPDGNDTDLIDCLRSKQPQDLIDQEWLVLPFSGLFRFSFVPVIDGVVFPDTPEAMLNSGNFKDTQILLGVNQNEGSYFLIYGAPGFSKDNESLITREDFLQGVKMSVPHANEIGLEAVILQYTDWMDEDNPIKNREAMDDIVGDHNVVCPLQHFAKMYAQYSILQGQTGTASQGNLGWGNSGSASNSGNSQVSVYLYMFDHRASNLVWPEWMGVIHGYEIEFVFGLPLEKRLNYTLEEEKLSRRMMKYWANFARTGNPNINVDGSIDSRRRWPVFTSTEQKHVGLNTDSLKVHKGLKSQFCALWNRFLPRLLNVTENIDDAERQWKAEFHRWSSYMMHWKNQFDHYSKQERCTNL
UniProt Q9Y2J8, sequence (whole entry, looked up): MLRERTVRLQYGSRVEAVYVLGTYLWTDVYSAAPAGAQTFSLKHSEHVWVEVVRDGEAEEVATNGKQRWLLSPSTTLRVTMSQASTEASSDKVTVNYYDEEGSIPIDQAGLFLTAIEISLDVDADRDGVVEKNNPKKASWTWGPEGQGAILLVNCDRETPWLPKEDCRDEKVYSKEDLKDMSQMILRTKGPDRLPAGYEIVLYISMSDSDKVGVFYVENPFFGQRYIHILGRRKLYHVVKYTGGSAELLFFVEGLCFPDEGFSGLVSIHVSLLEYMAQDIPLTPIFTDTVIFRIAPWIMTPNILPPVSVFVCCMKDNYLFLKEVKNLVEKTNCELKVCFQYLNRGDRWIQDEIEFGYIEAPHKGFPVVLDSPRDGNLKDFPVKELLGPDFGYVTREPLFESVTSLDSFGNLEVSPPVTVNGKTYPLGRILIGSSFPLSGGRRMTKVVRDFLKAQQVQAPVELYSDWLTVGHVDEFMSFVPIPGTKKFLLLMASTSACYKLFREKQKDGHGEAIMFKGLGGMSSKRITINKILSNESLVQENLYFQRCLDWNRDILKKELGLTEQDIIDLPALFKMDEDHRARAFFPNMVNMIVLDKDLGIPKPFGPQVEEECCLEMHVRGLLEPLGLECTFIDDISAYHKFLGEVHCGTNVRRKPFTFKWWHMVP
UniProt Q04759, sequence (whole entry, looked up): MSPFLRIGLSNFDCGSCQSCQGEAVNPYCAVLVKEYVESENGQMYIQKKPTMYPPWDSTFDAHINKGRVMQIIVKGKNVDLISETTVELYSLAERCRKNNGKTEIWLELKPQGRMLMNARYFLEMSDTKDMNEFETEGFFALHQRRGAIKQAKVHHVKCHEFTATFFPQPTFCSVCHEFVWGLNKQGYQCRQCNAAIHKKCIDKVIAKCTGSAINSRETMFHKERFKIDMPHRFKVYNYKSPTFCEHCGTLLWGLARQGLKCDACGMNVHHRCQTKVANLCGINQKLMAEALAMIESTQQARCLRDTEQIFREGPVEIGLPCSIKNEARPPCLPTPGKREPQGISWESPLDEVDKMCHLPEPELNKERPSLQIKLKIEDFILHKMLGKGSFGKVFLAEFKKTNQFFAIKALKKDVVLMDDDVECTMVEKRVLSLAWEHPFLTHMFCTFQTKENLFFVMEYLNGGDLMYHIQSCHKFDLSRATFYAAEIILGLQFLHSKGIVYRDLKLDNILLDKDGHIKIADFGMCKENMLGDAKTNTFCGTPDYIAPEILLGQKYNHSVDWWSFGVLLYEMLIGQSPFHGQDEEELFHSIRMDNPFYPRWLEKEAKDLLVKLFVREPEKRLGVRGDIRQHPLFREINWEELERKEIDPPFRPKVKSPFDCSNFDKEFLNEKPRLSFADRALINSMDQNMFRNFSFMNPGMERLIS
UniProt P0A988, sequence (whole entry, unmodified, looked up): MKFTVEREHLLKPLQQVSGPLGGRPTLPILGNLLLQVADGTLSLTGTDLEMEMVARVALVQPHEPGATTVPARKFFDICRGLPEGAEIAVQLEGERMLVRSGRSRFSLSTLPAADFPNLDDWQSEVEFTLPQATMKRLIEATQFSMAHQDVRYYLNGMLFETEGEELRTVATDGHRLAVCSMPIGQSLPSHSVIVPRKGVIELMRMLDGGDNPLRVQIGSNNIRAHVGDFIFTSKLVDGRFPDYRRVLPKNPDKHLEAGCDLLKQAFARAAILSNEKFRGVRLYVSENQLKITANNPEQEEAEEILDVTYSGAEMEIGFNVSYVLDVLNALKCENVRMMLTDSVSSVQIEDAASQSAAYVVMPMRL
UniProt Q15139, sequence (whole entry, looked up): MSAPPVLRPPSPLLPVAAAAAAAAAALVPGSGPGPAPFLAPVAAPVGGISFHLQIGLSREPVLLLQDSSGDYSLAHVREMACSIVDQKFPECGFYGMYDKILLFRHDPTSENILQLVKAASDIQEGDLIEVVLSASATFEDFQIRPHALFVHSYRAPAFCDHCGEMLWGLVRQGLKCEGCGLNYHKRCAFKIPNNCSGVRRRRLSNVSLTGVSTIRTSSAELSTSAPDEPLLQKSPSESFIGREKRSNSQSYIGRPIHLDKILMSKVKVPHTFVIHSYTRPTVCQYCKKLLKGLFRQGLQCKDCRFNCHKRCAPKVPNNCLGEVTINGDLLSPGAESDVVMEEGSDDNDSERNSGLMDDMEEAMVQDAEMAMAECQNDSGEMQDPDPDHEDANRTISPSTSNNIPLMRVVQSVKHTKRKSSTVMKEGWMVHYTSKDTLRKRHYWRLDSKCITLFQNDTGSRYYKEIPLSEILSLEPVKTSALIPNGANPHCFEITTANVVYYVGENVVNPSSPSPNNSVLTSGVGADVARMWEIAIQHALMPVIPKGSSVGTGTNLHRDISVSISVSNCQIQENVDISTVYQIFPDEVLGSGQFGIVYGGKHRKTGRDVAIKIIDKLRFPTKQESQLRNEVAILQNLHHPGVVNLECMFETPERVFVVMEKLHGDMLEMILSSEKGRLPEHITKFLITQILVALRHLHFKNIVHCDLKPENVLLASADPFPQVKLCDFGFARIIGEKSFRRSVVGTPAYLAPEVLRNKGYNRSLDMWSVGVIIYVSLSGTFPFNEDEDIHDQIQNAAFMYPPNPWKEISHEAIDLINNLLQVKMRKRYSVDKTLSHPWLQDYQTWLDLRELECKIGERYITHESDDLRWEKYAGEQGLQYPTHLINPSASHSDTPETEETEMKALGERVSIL
UniProt P48736, sequence (whole entry, looked up): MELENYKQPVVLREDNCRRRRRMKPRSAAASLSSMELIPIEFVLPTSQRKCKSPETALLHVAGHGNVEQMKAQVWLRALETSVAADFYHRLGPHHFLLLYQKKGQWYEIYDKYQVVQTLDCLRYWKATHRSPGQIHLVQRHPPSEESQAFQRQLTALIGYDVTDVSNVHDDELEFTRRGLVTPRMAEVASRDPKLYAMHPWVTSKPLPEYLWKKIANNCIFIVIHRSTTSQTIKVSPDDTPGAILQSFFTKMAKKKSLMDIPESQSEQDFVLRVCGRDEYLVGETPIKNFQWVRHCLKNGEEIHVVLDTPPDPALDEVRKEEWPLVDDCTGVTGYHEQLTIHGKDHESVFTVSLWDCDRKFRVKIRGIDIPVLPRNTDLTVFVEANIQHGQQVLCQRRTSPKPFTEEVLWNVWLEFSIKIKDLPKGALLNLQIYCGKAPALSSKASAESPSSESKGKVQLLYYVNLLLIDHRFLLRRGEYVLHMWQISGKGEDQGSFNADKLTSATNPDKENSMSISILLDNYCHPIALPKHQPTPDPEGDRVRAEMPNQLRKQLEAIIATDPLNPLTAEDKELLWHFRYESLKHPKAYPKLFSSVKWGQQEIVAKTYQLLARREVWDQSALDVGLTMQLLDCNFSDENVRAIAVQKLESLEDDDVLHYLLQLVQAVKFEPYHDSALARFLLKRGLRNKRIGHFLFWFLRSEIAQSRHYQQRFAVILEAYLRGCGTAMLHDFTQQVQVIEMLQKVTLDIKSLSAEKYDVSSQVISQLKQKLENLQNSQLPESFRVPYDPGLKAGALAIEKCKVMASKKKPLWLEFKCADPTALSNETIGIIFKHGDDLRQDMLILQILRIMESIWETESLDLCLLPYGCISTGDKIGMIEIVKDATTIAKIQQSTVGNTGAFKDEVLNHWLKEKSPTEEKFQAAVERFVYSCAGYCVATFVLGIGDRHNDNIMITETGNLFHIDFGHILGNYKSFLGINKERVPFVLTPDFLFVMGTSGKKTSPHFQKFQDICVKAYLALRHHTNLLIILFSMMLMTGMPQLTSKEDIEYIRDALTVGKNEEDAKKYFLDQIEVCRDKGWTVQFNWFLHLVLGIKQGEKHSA
UniProt P16233, sequence (whole entry, looked up): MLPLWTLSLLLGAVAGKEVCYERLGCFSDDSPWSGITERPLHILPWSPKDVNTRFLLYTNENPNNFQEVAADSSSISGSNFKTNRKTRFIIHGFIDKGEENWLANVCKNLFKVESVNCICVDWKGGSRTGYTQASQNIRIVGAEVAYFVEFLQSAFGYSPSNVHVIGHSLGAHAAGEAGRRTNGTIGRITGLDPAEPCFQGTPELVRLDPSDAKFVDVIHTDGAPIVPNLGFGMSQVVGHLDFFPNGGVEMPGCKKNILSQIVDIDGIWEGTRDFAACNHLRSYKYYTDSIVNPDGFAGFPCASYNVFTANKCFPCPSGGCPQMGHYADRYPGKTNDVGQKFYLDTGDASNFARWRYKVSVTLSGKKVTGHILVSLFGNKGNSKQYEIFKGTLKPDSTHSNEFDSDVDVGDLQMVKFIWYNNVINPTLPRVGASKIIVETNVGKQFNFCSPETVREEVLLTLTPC

SMILES | tested on | test | test system | setting | how to read | quantity | value
O=C(O)C(/C=C/c1ccc(Cl)cc1)=N\Nc1nc(-c2ccc([N+](=O)[O-])cc2)cs1 | ache | Ellman |  |  | relative to: IC50 BChE over IC50 AChE | selectivity index | 1.83
COc1ccccc1-c1n[nH]c2nc(NC3CCN(C(=O)Cc4ccc(F)cc4F)CC3)ncc12 |  | bead binding, competition bead pull-down, item: LMJF.21.1860 | Leishmania donovani axenic amastigote extract | 10 µM | relative to: vehicle | relative abundance | 0.9
CC(C)[C@H]1NC(=O)C[C@H]2/C=C/CCSSC[C@@H](NC1=O)C(=O)N[C@H](Cc1cccc3ccccc13)C(=O)NCC(=O)O2 | WNK2 (Homo sapiens, UniProt Q9Y3S1) | enzyme activity, inhibitor |  | 10 µM |  | inhibition | 3.2%
CC#CC(=O)NC[C@H](NC(=O)[C@H](CC1CCCCC1)NC(=O)[C@H](CCC(N)=O)NC(C)=O)C(=O)N[C@@H](CC(C)C)C(=O)N[C@@H](Cc1ccccc1)C(=O)O | Beta sliding clamp (Escherichia coli, UniProt P0A988) | binding, isothermal titration calorimetry |  | 25 °C |  | ΔG | -9.8 kcal/mol
CS(C)(=O)=Nc1ccc(-c2ccc(-c3nc4cc(O[C@@H]5CO[C@H]6[C@@H]5OC[C@H]6O)[nH]c4cc3F)cc2)cc1 | PRKD1 (Homo sapiens, UniProt Q15139) | enzyme activity, inhibitor |  | 10 µM |  | inhibition | 13%
Cc1cc(C(=O)Nc2nc3cccc(C)c3n2[C@H]2CCCCN(C(=O)/C=C/CN(C)C)C2)ccn1 | Trypanosoma brucei brucei |  | 2T1 parental | 5 x EC50, 48 h | relative to: time 0 h | cell growth | 50% and 40% and 37.3%
CC(=O)c1ccc(/N=N/c2cccc([B-](F)(F)F)c2)cc1.[K+] | Chymotrypsinogen A (Bos taurus, UniProt P00766) | enzyme activity, inhibitor |  | together with: Suc-AAPF-AMC | relative to: Ki cis over Ki trans | switching factor | 2.4 ± 0.5
N[C@H](C(=O)N1CCCC1)C1CCN(c2nccc3c(-c4ncc(Cl)cc4Cl)cccc23)CC1 | PADI2 (Homo sapiens, UniProt Q9Y2J8) | enzyme activity |  | 1.536 µM, high-affinity site, together with: Ca2+ 1.5 mM |  | kcat | 1.16 s⁻¹ and 1.11 s⁻¹
[CH3][Ti+2][O]C(=O)c1ccc([S][Au][PH](c2ccccc2)(c2ccccc2)c2ccccc2)cc1.c1cc[cH-]c1.c1cc[cH-]c1 | PRKCQ (Homo sapiens, UniProt Q04759) | kinase activity, HotSpot radiometric |  | 1 µM, together with: ATP 10 µM | relative to: vehicle | remaining activity | 80.8% and 80.5%
O=C1NC(=O)c2c1c1cc(F)c[n+]3c1c1c2c2cc(O)ccc2[n]1[Ru-4]312([N]=C=S)[S+]3CC[S+]1CC[S+]2CC3 (stereo not shown) | EPHA5 (Homo sapiens, UniProt P54756) | enzyme activity |  | 100 nM, human enzyme, together with: 10 µM ATP | relative to: untreated | remaining activity | 126%
O=C1NC2(CC2)COc2ncc(F)cc2[C@H]2COCCN2c2ccn3ncc1c3n2 |  |  | Sprague-Dawley rat, female, serum | oral, 5 mg/kg/day, 4 weeks daily, end of recovery period |  | pancreatic amylase activity | 1550 ± 116 U/L
CC[C@H](C)[C@H](NC(=O)[C@H](CO)NC(=O)[C@H](Cc1ccc(O)cc1)NC(=O)[C@H](Cc1ccc(O)cc1)NC(=O)[C@H](CC(N)=O)NC(=O)CNC(=O)[C@H](CO)NC(=O)[C@H](Cc1ccc(O)cc1)NC(=O)[C@H](CO)NC(=O)[C@H](CO)NC(=O)[C@H](CC(N)=O)NC(=O)COCCOCCNC(=O)CN1CCN(CC(=O)O)CCN(CC(=O)O)CCN(CC(=O)O)CC1)C(=O)N[C@@H](CC(C)C)C(N)=O [copper-64 labelled] |  | dynamic PET | tamoxifen-induced PDAC mouse model, pancreas | 6.5 min, CLDN4-expressing tumours |  | maximum pancreas uptake | 17.2 %IA/cc
CC(C)(C)C(=O)OCOP(=O)(OCOC(=O)C(C)(C)C)C1CCCN(O)C1=O (stereo not shown) | NCI/ADR-RES |  |  |  |  | Log10GI50 | -6.36 log M
Cc1sc2c(c1C)C(c1ccc(Cl)cc1)=NC(CC(=O)OC(C)(C)C)c1nnc(C)n1-2 (stereo not shown) | ADRB2 (Homo sapiens, UniProt P07550) | ligand displacement, radioligand |  | 1 µM |  | remaining binding | 96.5%
CN(C)S(=O)(=O)N1CCN(C(=O)Cc2ccc(Cl)c(Cl)c2)[C@H]2[C@H]1COC[C@@H]2N1CCCC1 (single isomer, unassigned) | OPRK1 (Homo sapiens, UniProt P41145) | agonist |  | 0.3333 h |  | Emax | 96%
O=C(O)c1cc(O)c2c(c1)[C@@H]([C@H]1c3cc(C(=O)O)cc(O)c3C(=O)c3c(O[C@@H]4O[C@H](CO)[C@@H](O)[C@H](O)[C@H]4O)cccc31)c1cccc(O[C@@H]3O[C@H](CO)[C@@H](O)[C@H](O)[C@H]3O)c1C2=O | PNLIP (Homo sapiens, UniProt P16233) | enzyme activity, inhibitor, fluorescence |  | 50 µM |  | remaining activity | 5.43%
C#CCCCCOc1ccc2c(c1)CCCN2C(=O)CCl | ALDH5A1 (Homo sapiens, UniProt P51649) | mass spectrometry profiling | H460 cell lysate | 100 µM over 10 µM, UniProt P51649 | relative to: high over low concentration | reactivity ratio | 1.54
CCCCN(C=O)c1c(CC)nc2ccc(C(=O)N(C)Cc3ccco3)cn12 | ache | inhibitor |  | 5 µM |  | activity | active
CN(C)[C@H]1C[C@@]23CC[C@@]4(O2)C(=CC[C@]2(C)[C@@H](c5ccc6ccncc6c5)CC[C@H]24)C=C3[C@@H](O)[C@@H]1O | PIK3CG (Homo sapiens, UniProt P48736) | ATP probe labelling, inhibitor, KiNativ profiling |  | 1 µM |  | inhibition | -2.5%

A few entries again:
SMILES | tested on | test | test system | setting | how to read | quantity | value
CC(C)(C)C(=O)OCOP(=O)(OCOC(=O)C(C)(C)C)C1CCCN(O)C1=O (stereo not shown) | NCI/ADR-RES |  |  |  |  | Log10GI50 | -6.36 log M
Cc1sc2c(c1C)C(c1ccc(Cl)cc1)=NC(CC(=O)OC(C)(C)C)c1nnc(C)n1-2 (stereo not shown) | ADRB2 (Homo sapiens, UniProt P07550) | ligand displacement, radioligand |  | 1 µM |  | remaining binding | 96.5%
